# Measurements collected from several papers.
# Parts stem from different laboratories: compare values within a part only.

# Sample 1 — technique: universal PBM; form: double-stranded DNA, one strand shown; medium: in vitro; tested at: 600 nM; reading: higher = stronger binding
# Target: Sal-like protein 4, full length isoform A (SALL4, Homo sapiens, UniProt Q9UJQ4, residues 1-1053)
# UniProt Q9UJQ4, sequence (whole entry, looked up): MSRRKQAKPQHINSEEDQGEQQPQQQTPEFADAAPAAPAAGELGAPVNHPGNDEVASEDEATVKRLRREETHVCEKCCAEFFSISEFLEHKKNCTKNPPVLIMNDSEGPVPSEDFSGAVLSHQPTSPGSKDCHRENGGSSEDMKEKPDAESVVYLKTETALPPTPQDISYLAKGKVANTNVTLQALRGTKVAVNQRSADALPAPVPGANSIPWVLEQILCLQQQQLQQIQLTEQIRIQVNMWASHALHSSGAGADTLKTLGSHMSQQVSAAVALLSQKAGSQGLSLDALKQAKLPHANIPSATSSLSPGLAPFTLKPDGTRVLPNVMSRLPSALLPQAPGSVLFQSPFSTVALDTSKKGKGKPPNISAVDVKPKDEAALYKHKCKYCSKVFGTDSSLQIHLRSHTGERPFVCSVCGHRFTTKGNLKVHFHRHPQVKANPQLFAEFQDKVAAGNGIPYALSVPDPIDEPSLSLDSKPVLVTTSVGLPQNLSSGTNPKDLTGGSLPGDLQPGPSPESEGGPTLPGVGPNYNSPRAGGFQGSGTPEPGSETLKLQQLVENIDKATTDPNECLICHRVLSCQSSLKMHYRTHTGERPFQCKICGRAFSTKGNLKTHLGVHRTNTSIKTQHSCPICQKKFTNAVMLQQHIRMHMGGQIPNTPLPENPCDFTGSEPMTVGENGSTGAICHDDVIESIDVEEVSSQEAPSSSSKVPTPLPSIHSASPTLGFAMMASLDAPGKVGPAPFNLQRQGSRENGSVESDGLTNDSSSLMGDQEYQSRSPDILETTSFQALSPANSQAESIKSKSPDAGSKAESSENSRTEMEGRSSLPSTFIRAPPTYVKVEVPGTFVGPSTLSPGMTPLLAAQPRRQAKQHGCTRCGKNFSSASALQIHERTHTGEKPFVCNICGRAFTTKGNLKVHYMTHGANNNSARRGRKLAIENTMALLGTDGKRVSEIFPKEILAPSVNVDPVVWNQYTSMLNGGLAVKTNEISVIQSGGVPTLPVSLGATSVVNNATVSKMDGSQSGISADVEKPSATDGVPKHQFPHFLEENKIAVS
# Notes: 8-mer, flanks averaged, mean of replicates
Oligonucleotide,E-score
CAACGCGG,-0.246
AACATTAG,0.176
CCTCGAGC,-0.211
ACCAATCC,-0.114
CATCGAAG,0.17
GCCAACAC,-0.0469
GCCATTTA,0.102

# Sample 2 — technique: protein-binding microarray; form: double-stranded DNA, one strand shown; medium: in vitro; tested at: 250 nM; notes: 60-bp whole probe; with: salmon DNA 0.4 mg/ml; reference: random background probes; reading: higher = stronger binding; constant ends, left off below: GCCTAGCAC … GTCTTGATTCGCTTGACGCTGCTG
# Target: Interferon regulatory factor 5, full length, phosphomimetic (IRF5, Homo sapiens, UniProt Q13568-2, residues 1-514, K96S/S451D/S453D/S456D/S462D)
Oligonucleotide,log fluorescence [z-score]
GACCGACTGGGGTTTCGGGACGTGCTA,1.45
GACGGTTTCGACACTGAGGACGTGCTA,4.9
TCTGTTTTTGCTTTCCTTCTGTGCTAG,2.06
TATGTTCACTATTTAAGACCGTGCTAG,0.345
GTCGGTCTCGGTTTCGGGACGTGCTAG,4.33
GACGGTTTCGGTTCCGGTACGTGCTAG,9.92
GCCGGTATCGGTATCGGGACGTGCTAG,7.66
AAGTTTCTCCTTTGTAAATAGTGCTAG,3.63
TTAGATTGCGGGACTGGATTAGTGCTA,-0.114
GACGGAATGCTTCTCCTGACGTGCTAG,-0.27
GCTTTTATCCCTGACAGAAGGTGCTAG,0.198

# Sample 3 — technique: RNA Bind-n-Seq; form: RNA; medium: in vitro; tested at: 365 nM; reference: no-protein control; reading: higher = stronger binding
# Target: RNA binding protein fox-1 homolog 2, RRM domain, GST-SBP tag (RBFOX2, Homo sapiens, UniProt O43251-10, residues 100-194)
# Notes: natural RNA segment, single round, ends assumed
# Constant ends, left off below: GGGAGUUCUACAGUCCGACGAUC … UGGAAUUCUCGGGUGCCAA
# Residues (chain): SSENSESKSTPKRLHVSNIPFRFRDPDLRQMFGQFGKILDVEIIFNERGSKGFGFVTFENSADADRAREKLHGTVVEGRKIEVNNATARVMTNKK
Oligonucleotide,RBNS enrichment (R)
UGAGAGGGAAAGUCUAGUAUCAAUUCUUCUGUUUGCUCGCAAUGACACAAAUAGGUUUUGGGGAUCUACCUAAGGGAUAGGUCUACUCCAAAAUUAUUAAAUUUAUAAUU,0.404
AGUUCUCACCUCCAUUUAGUCCCCCAUCAGAACAGAGGUCAGGAAUUUAGCUGGGGAGCCUAAAUUUAGUUCAGCUUACCUUUGAGAAUAGCAUCAAUUCAGACUCUCUU,0.972
AGUCUUUUUCCCCUCAACCUGUGGUAUUUGCAGAUGACAACUUUGAAAAUAAAGCAGUCUCGGGCAGAGACGCUGUGUGACAUGUUGGCUGACAAAUUAGUCAUUGCUUA,0.244
GAACCCAAAGCUAGGGCCACCCCUGCACUUAGGCCUUGGCUGAAGAUCUUGAGACUGGUGUUUCCGUGGUCAUUGGUGACAGGAUGUGUGCGCUCGAGUGUGUAAGUGUG,10.8
GAGAAUCAAGAAAACACCCAGAAAGGCCUUAAUGACCUCAUAGGCACUCUUCCAAAAAGACAACAGAACUGGAAUGAGAGGCCUGGGUCUGUCUCCUGCCUUAGCAGGCC,0.354
UCUAGUUGUGAAAAUCACUCAAGAUUGAGAGAACAGGCUGGCAUAGUGGGAUAAAGGGCCCAAAAGCAAGGAGACUGUCGUAUAGAAAGAAAGUGGACAGGAUGCUACUG,1.11
AGGAUUAAUUAUCAGAAGACAGCUCAGGCCAAGUUUUGAUCGUUCCAUACAGUACCUUGUUUAUCUGCUUCUUAAAGAAUCAGCCGAGACACCAUAAAAGAAAUAGGCUU,0.277
ACGGGCAAAGCAGAGAUCUGGUUUGAAAGCUGGGGAAAUUGAGAAGCCAGAUCGAUUUGACUUUGCUUCCAUGCUGUGUGUUCUGAAAGGACAUGGCUCUAAAAUUUCCU,0.554

# Other studies, line by line
Substance,target,test,system,conditions,scale,endpoint,value
"PhoQ, residues 284 288 289 292 302 303 TNASYF","PhoP, residues 12 14 15 18 19 STWGI (Escherichia coli, UniProt P23836)","Sort-seq, measured: YFP reporter",E. coli,"PhoQ-PhoP variant library, with: 10 µM Mg2+","reference: high Mg2+ state, higher = stronger signaling",fold induction,1.18

# A few entries again (sample 3):
Oligonucleotide,RBNS enrichment (R)
GAGAAUCAAGAAAACACCCAGAAAGGCCUUAAUGACCUCAUAGGCACUCUUCCAAAAAGACAACAGAACUGGAAUGAGAGGCCUGGGUCUGUCUCCUGCCUUAGCAGGCC,0.354
UCUAGUUGUGAAAAUCACUCAAGAUUGAGAGAACAGGCUGGCAUAGUGGGAUAAAGGGCCCAAAAGCAAGGAGACUGUCGUAUAGAAAGAAAGUGGACAGGAUGCUACUG,1.11
